Results gathered from unrelated publications.
Each numbered part is a random draw from the data of one study; scales do not carry over between parts.

Block 1 — method: RNA Bind-n-Seq; molecule type: RNA; medium: in vitro; tested at: 365 nM; reference: no-protein control; direction: higher = stronger binding; measurement: RBNS enrichment (R)
Target: RNA binding protein fox-1 homolog 2, RRM domain, GST-SBP tag (RBFOX2, Homo sapiens, UniProt O43251-10, residues 100-194)
Setting: natural RNA segment, single round, ends assumed
All sequences stand within: GGGAGUUCUACAGUCCGACGAUC … UGGAAUUCUCGGGUGCCAA
Residues (chain): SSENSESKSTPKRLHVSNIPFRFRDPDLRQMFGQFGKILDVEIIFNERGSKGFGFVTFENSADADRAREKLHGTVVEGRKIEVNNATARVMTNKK
AGAUGUCCUCAGGUCUUUUCCAUCUUCAGUUUCUAUGACUGUGGAAUAAAUGUUCAGAUAGAAACUUACUUUUGGAUGUACUGCUGGCUUUGUCUUUGGGGAUUCAAAUG: 0.533
AUGAACCCUGCCCCACUCCUGUCAGCCCCUCAUCAGCCUUUUCAGCAGGUUCCAGUGCCUGACUUGGGAUAGGACUGAGUGGUAGGAGGAGGGGGAGUGGAGGGGCAUAG: 0.784
GGAUCAUCUCCACAGCUGUGACCAGAAAUCCUCACGAAGGGCACAUUUCUAGGUAGACCCAAAUGGAACUAAAUCAUGUCACAAGCUGAGAGAAUUACUGAGUUCCUCUC: 0.304
GUGGCUCUGGCUGACGCUAAUCCUACAGCUCCCCAUUUUCUGAGAGACCAAGAACCAUGAUCAUUGCCUGCUGAAUCGGCCAGGGCCUGGCCACUCUGUGAAUACAUGAU: 2.72
CUUUAGACACGAAAUGCGUGCUAGGACUGGCAGCAGUUCCUGAGCCUGGCUGCCAGGCAACAGGAAGAAAGGCGUAUGGGAAAGUAGGAUGGAGACUGGAACCAUCCUAC: 0.73
GGAAAAAAUCCAAUUCAUUUGACCUAAAAACAAGCCUCAAGUUUAAAACCAAGCUCACGUUUUUCUUAAGGGAAAAAUUUUCUUUCUUAAACUUACAUCUAGCAACUUGG: 0.363
GGAGAGCUUCAGUGGCACCUCAAAACCCACCCUUCGAGAUCUGUCCAAAGACAGUCUCAGAAAGCUGCACUGCCCACCGGCUCAGCUUUCAUUCAAAAAGGCUUCCAAGG: 0.255
UUUACCAAAUUUUACCUAGAAUUUUAGGACCAAAUGGUUCUCACUCUUUAUGCUGCAAAGACCUGGAUGAUGUUUGGUAACUAUAGAAAAAUAGAAAUUACACUCAGGAU: 0.476
CCCCACGAAAUUUAAAGAUGGGGAAAAAAAGAUGGUAUAAAAAUGGCUCUGGUUCAAUAAGCAGUCACCCAAAGUAAAGACUCUAUCUUGAAAGGCUUUUGGUGAAAAUG: 0.384

Block 2 — method: RNA Bind-n-Seq; molecule type: RNA; medium: in vitro; tested at: not given; reference: input RNA pool; direction: higher = stronger binding; measurement: bound/input enrichment
Target: RING finger protein unkempt homolog, zinc fingers 1-6, GST-SBP tag (UNK, Homo sapiens, UniProt Q9C0B0, residues 30-357)
Setting: RNA with constant flanks, human and mouse sites, ends assumed
All sequences stand within: GGGAGUUCUACAGUCCGACGAUC … CAACAGAGGAUUGAGCAUCA
Construct (chain): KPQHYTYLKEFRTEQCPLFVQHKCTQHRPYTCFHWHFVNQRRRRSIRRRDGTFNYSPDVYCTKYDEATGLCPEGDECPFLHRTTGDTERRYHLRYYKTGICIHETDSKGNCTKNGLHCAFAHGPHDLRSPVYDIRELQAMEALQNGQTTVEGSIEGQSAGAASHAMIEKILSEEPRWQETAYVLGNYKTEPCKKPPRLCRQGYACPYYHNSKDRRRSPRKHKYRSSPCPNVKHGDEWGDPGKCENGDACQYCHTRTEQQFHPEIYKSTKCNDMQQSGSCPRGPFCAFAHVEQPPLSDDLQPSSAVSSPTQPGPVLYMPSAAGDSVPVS
UUUCGGGGCUCUGCGGAACCUUCUCUGUACAGCGCCCCCUUUCUGUUGUGCUAUUGGUUGCAGCUGCCAUGCUCAGAAUGCGUUUUGAGAGCUGAAGCAAGGUGCUUGCAGUCACCUGAG: 0.0537 ratio
UGUUAUCUGUUGCAGAAGGGAUGUAUUUGGCAGAAUCUCAGGCUGCAUGUCUGGUAGCUCAUUAGAGCCAGGAGAGAUUUUAGUUUAAUUAUAGCCUUUCAUUGUACUAACGAAGGAUUU: 1.81 ratio
GUGUGUAACUCUUGGGUACUUGAGCAGAUGGAAUAUUCCAGAGGUGGGAGGUGGGAGGGGAGGGGAGAAGUCCCAAACAAAGUGUUCUUGCUCUGACCCAUAUUAAUCUUGUAUGCUUGG: 0.575 ratio
CAGAUCUCUGCCCAGCUCUCGUGGCUGCCGACCAACAGUAACUACAGCCAUAUCAUCUUCCUCAACGAAGAAGAACUGGACAUCGUGAAGGCAGCCAGGUACAAGUACCAAUUCUUCAAC: 0.0465 ratio
UACUUGUACUUUCUUGACUGAUAGUCAUCUUGACUUAAGUAGUUUGAGUAGCCUUUUAGGAAUUACUUGUAAAUAGCCUUGUAAAUAGAGCAUUUAACCAUAUGUACCCUUCCUAGCCUC: 1.55 ratio
GUAGACAAAGACCAGCCUUCCAUUUUAAACUCCUGUGAAGACCCAGUUCCAGGGAUGUUGUUUUUUUUGCCACCUGGUCAGCACUUGUCAGACUAUUCCCAGUUGAAUGAAAGCACAACA: 0.261 ratio
GGAGGGUGAGCACUGGAGCUGGAAAGGCCAGGAGGGCGGGGCUCGAAGUUGUGGGCGGAGACUAGGGGCGUGGCCAAAUUGAUCGUGUACUGUGAAAGAGGUACAGUGUGUUGCAAAUAG: 0.677 ratio

Block 3 — method: RNA Bind-n-Seq; molecule type: RNA; medium: in vitro; tested at: 200 nM; setting: whole 134-nt RNA, ends assumed; together with: 150 mM KCl; reference: input library; direction: higher = stronger binding; measurement: log2 enrichment
Target: Fragile X messenger ribonucleoprotein 1, C-terminal low-complexity region (Fmr1, Mus musculus, UniProt P35922)
All sequences stand within: GGGAGUUCUACAGUCCGACGAUC … UGGAAUUCUCGGGUGUCAAGG
AGUCCUGUGCUACACAUCGUAUGUACCGAAUCGGGGUUUUGGGGUUUUGGGGUUUUGGAAAGUAUUAUGUUACGCCGUUCGGAUCUGCAC: 0.33
UGGCCCUGGUGGCACGCGGGGAGGAAGAGGUGGCCUCAUGGAUCGUGGUGGUCCCGGUGGAAUGUUCAGAGGUGGCCGUGGUGGAGACAG: 0.402
AAGUCCUGUGCUACACAUCGUAUGUACCGAAUCGGUUUUGGGGUUUUGGGGUUUUGGAAAGUAUUAUGUUACGCCGUUCGGAUCUGCACU: -0.171
CACAGACAACACGCACCCACACAGACACAGAGGGAAGGGGUUGGGAUGGGGACAGGGUGCACAGCAGGGCGGGGUAGGACCCCAGCCCAU: 1.37
GAGGGAGUUUGCAGAUACCUCAGGAUUCGUGACAAUGCCUUUAAAGAUCCAGGAGAGAUGUUCAGCUACUAGGAACUGCUAGCAAGUAUA: -0.2
AAGUCCUGUGCUACACAUCGUAUGUACCGAAUCAAACCCAAAUUUUUAAACCCAAAAAAGUAUUAUGUUACGCCGUUCGGAUCUGCACUU: -0.302
UAACUUUACAGGAGGAUCUGAUGGAUAUGGCAGUGGACGUGGAUUUGGGGAUGGCUAUAAUGGGUAUGGAGGAGGACCUGGAGGUGGCAA: 0.406
GUCCUGUGCUACACAUCGUAUGUACCGAAUCGGGGUUUUUGGUUUUUGGGGUUUUUGGAAAGUAUUAUGUUACGCCGUUCGGAUCUGCAC: -0.166
UCCUGUGCUACACAUCGUAUGUACCGAAUCGGGAAAAAAGGGGAAAAAAGGAAAAAAGGAAAGUAUUAUGUUACGCCGUUCGGAUCUGCA: -0.317
UGGGAGGUGGAUUUUGUUUAUUUUUUUAGCUCAUUGCCAGGGGUGGGAAUUUUUUUUUAAUAUGUGUCAUGAAUAAAGUUGUUUUUGAAA: 0.15
CACAGACAACACGCACCCACACAGACACAGAGGGAAGGGCUUGGGAUGGGGACAGGGUGCACAGCAGGGCGGGGUAGGACCCCAGCCCCU: 1.35

Further values, each from its own experiment
PhoQ, residues 284 288 289 292 302 303 ALVSVA
fold induction (PhoP, residues 12 14 15 18 19 LHHSG (Escherichia coli, UniProt P23836); Sort-seq, item: YFP reporter; E. coli; PhoQ-PhoP variant library, together with: 10 µM Mg2+; reference: high Mg2+ state, higher = stronger signaling): 18

Repeated from above (block 2):
CAGAUCUCUGCCCAGCUCUCGUGGCUGCCGACCAACAGUAACUACAGCCAUAUCAUCUUCCUCAACGAAGAAGAACUGGACAUCGUGAAGGCAGCCAGGUACAAGUACCAAUUCUUCAAC: 0.0465 ratio
UACUUGUACUUUCUUGACUGAUAGUCAUCUUGACUUAAGUAGUUUGAGUAGCCUUUUAGGAAUUACUUGUAAAUAGCCUUGUAAAUAGAGCAUUUAACCAUAUGUACCCUUCCUAGCCUC: 1.55 ratio
GUAGACAAAGACCAGCCUUCCAUUUUAAACUCCUGUGAAGACCCAGUUCCAGGGAUGUUGUUUUUUUUGCCACCUGGUCAGCACUUGUCAGACUAUUCCCAGUUGAAUGAAAGCACAACA: 0.261 ratio
GGAGGGUGAGCACUGGAGCUGGAAAGGCCAGGAGGGCGGGGCUCGAAGUUGUGGGCGGAGACUAGGGGCGUGGCCAAAUUGAUCGUGUACUGUGAAAGAGGUACAGUGUGUUGCAAAUAG: 0.677 ratio
